Measured values from different studies.
Each numbered part is a random draw from the data of one study; scales do not carry over between parts.

Study 1 — method: protein-binding microarray; molecule type: double-stranded DNA, one strand shown; medium: in vitro; tested at: 250 nM; notes: 60-bp whole probe; added: salmon DNA 0.4 mg/ml; relative to: random background probes; direction: higher = stronger binding; endpoint: log fluorescence; constant ends, left off below: GCCTAGCAC … GTCTTGATTCGCTTGACGCTGCTG
Target: Interferon regulatory factor 7, full length, phosphomimetic (IRF7, Homo sapiens, UniProt Q92985, residues 1-503, S101K/S471D/S472D/S475D/S476D/S477D/S483D/S484D/S487D)
Residues (chain): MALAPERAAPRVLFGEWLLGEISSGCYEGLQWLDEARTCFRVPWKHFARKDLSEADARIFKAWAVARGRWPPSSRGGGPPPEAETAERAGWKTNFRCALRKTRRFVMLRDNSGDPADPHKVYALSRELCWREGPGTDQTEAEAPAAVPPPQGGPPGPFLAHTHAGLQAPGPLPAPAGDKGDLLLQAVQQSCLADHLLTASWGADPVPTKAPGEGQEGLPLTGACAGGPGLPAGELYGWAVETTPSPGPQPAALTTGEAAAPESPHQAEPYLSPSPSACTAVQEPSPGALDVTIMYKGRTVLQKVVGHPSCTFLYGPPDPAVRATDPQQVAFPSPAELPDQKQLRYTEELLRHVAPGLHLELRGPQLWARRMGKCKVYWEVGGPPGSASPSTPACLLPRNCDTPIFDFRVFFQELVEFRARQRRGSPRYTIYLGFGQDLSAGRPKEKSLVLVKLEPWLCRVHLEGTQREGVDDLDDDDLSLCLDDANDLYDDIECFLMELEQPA
TCATGTTTGTCCCTATTACTGTGCTAG: 1.17 z-score
TTAGAACTGAGACTGGCTTAGTGCTAG: -0.483 z-score
TCAGTTCTCAGACTGGGACTGTGCTAG: 1.06 z-score
TTTTTTTTTACTTCGGGTGAGTGCTAG: 0.8 z-score
TTAGATTTCCGACTGGATTAGTGCTAG: 0.138 z-score
AAGAAGCTTCCTCTCTGCCAGTGCTAG: -0.0674 z-score
GGAGTTTTCAGTCCTGGGATGTGCTAG: -0.131 z-score
GACGAACTGGGCTTTCGAGACGTGCTA: -0.609 z-score

Study 2 — observed: enzyme activity; mode: inhibitor; tested at: 20 µM; notes: hit confirmation, with DTT; endpoint: inhibition
Target: Replicase polyprotein 1ab, main protease (rep, Severe acute respiratory syndrome coronavirus 2, UniProt P0DTD1)
Sc1nnnn1-c1ccccc1: 78.4%
CCCCCCCCCCCCCCCCCC[S+](CCC)c1ccccc1C(=O)OCC (stereo not drawn): 89.9%
O=C(/C=C/c1ccc2ccc(C(F)(F)F)cc2n1)c1ccncc1: 14.8%
CCN(CC)C(=S)[S-].O.O.O.[Na+]: -13.9%

Study 3 — mode: inhibitor; tested at: 20 µM; endpoint: inhibition
Target: Replicase polyprotein 1ab, nsp13 helicase (rep, Severe acute respiratory syndrome coronavirus 2, UniProt P0DTD1)
CCOc1ccc(Cc2cc([C@@H]3O[C@H](CO)[C@@H](O)[C@H](O)[C@H]3O)ccc2Cl)cc1: 3.47%
CNC[C@H](O)[C@@H](O)[C@H](O)[C@H](O)CO: 7.7%
COc1ccc(C(CN(C)C)C2(O)CCCCC2)cc1 (stereo not drawn): 0.77%
FC(F)(F)C(F)(F)C(F)(F)N(C(F)(F)C(F)(F)C(F)(F)F)C(F)(F)C(F)(F)C(F)(F)F: 1.81%
N#Cc1nn(-c2c(Cl)cc(C(F)(F)F)cc2Cl)c(N)c1[S+]([O-])C(F)(F)F (stereo not drawn): 2.45%
CN1CCN(c2cccc3[nH]c(=O)oc23)CC1: 12.7%
COc1cnc(NS(=O)(=O)c2ccc(N)cc2)nc1: -0.84%
N[C@H](C(=O)O)c1ccc(C(=O)O)c(O)c1: 4.36%
CC(=O)[C@H]1CC[C@H]2[C@@H]3CC[C@H]4C[C@](C)(O)CC[C@]4(C)[C@H]3CC[C@]12C: -1.94%
O=C(O)C1=CCCN(CCOC(c2ccc(C(F)(F)F)cc2)c2ccc(C(F)(F)F)cc2)C1: 3.7%
CN(C)Cc1ccc(S(=O)(=O)n2ccc(/C=C/C(=O)NO)c2)cc1: -3.84%
Cc1ccccc1OCC(O)CNCCOc1ccc(C(N)=O)cc1 (stereo not drawn): 0.07%
CC[C@@]1(O)C(=O)OCc2c1cc1n(c2=O)Cc2c-1nc1cc(F)c(C)c3c1c2[C@@H](N)CC3: 7.46%
NCCCS(=O)(=O)O: 2.63%
Cn1c(=O)c2[nH]c(Br)nc2n(C)c1=O: -4.53%
CC(=O)c1cc2c(o1)C(=O)c1ccccc1C2=O: 8.36%
C[C@]12C/C(=C/O)C(=O)C[C@@H]1CC[C@@H]1[C@@H]2CC[C@@]2(C)[C@H]1CC[C@]2(C)O: 1.71%
CN1CCN(CCCCN2C(=O)CN(/N=C/c3ccc(-c4ccc(Cl)cc4)o3)C2=O)CC1: 34.3%
CN1CCN(c2cc(-c3ccccc3)nc(N)n2)CC1: -3.68%
CC1CC(OC(=O)C(O)c2ccccc2)CC(C)(C)C1 (stereo not drawn): 2.87%
Cc1coc2c1C(=O)C(=O)c1c-2ccc2c(C)cccc12: 9.95%
O=C1CNC(=O)CN1: 6.02%
CC(=O)N[C@@H](Cc1ccc(O)cc1)C(=O)O: -3.47%
CCOc1cc2ncc(C#N)c(Nc3ccc(F)c(Cl)c3)c2cc1NC(=O)/C=C/CN(C)C: 6.8%
Cc1cc(NC(=O)Nc2ccc(F)c(F)c2)n(-c2ccccc2)n1: 1.66%

Study 4 — cell line: HEK-293T; observed: pseudovirus infection; organism: VSV pseudotyped with SARS-CoV-2 spike; tested at: 10 µM; time: 16 h; relative to: vehicle-treated; endpoint: GFP-positive cells
O=C1CCCC(=O)C1C(=O)c1ccc(C(F)(F)F)cc1[N+](=O)[O-]: 107%
CC(=O)O[C@H]1C(=O)[C@@]2(C)[C@H]([C@H](OC(=O)c3ccccc3)[C@]3(O)C[C@H](OC(=O)[C@H](O)[C@@H](NC(=O)c4ccccc4)c4ccccc4)C(C)=C1C3(C)C)[C@]1(OC(C)=O)CO[C@@H]1C[C@@H]2O: 131%
N=C1CCCN1Cc1nc(O)nc(O)c1Cl: 93.5%
CNNCc1ccc(C(=O)NC(C)C)cc1: 82.3%
Nc1cccc2c1C(=O)N(C1CCC(=O)NC1=O)C2=O (stereo not drawn): 98.5%
COc1cc([C@@H]2c3cc4c(cc3[C@@H](O[C@@H]3O[C@@H]5CO[C@@H](C)O[C@H]5[C@H](O)[C@H]3O)[C@H]3COC(=O)[C@H]23)OCO4)cc(OC)c1O: 61.1%

Study 5 — method: protein binding microarray; molecule type: double-stranded DNA, one strand shown; medium: in vitro; tested at: not given; relative to: not given; direction: higher = stronger binding; endpoint: E-score
Target: Histone acetyltransferase KAT6A, winged helix 2, GST fusion (KAT6A, Homo sapiens, UniProt Q92794, residues 85-181)
Notes: 8-mer, flanks averaged, mean of 2 arrays, mostly near background
Residues (chain): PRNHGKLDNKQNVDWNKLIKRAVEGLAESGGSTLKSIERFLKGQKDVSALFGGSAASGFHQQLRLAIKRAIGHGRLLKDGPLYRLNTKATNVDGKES
GACTCCGA: -0.0962
GCCTCGAA: 0.222
GGCCGCTA: 0.0841
GGGTGTCA: 0.0117
GCGAGGTA: 0.105
AGTTCTCG: 0.00761
CTAAGGGA: 0.0209
ACTGACAT: -0.0187

Some of these lines once more (study 2):
CCCCCCCCCCCCCCCCCC[S+](CCC)c1ccccc1C(=O)OCC (stereo not drawn): 89.9%
Sc1nnnn1-c1ccccc1: 78.4%
CCN(CC)C(=S)[S-].O.O.O.[Na+]: -13.9%
O=C(/C=C/c1ccc2ccc(C(F)(F)F)cc2n1)c1ccncc1: 14.8%
